Results from different studies.
Numbered parts are unrelated; each lists some results of a single study.
Sequence of UniProt P08922 (whole entry, looked up): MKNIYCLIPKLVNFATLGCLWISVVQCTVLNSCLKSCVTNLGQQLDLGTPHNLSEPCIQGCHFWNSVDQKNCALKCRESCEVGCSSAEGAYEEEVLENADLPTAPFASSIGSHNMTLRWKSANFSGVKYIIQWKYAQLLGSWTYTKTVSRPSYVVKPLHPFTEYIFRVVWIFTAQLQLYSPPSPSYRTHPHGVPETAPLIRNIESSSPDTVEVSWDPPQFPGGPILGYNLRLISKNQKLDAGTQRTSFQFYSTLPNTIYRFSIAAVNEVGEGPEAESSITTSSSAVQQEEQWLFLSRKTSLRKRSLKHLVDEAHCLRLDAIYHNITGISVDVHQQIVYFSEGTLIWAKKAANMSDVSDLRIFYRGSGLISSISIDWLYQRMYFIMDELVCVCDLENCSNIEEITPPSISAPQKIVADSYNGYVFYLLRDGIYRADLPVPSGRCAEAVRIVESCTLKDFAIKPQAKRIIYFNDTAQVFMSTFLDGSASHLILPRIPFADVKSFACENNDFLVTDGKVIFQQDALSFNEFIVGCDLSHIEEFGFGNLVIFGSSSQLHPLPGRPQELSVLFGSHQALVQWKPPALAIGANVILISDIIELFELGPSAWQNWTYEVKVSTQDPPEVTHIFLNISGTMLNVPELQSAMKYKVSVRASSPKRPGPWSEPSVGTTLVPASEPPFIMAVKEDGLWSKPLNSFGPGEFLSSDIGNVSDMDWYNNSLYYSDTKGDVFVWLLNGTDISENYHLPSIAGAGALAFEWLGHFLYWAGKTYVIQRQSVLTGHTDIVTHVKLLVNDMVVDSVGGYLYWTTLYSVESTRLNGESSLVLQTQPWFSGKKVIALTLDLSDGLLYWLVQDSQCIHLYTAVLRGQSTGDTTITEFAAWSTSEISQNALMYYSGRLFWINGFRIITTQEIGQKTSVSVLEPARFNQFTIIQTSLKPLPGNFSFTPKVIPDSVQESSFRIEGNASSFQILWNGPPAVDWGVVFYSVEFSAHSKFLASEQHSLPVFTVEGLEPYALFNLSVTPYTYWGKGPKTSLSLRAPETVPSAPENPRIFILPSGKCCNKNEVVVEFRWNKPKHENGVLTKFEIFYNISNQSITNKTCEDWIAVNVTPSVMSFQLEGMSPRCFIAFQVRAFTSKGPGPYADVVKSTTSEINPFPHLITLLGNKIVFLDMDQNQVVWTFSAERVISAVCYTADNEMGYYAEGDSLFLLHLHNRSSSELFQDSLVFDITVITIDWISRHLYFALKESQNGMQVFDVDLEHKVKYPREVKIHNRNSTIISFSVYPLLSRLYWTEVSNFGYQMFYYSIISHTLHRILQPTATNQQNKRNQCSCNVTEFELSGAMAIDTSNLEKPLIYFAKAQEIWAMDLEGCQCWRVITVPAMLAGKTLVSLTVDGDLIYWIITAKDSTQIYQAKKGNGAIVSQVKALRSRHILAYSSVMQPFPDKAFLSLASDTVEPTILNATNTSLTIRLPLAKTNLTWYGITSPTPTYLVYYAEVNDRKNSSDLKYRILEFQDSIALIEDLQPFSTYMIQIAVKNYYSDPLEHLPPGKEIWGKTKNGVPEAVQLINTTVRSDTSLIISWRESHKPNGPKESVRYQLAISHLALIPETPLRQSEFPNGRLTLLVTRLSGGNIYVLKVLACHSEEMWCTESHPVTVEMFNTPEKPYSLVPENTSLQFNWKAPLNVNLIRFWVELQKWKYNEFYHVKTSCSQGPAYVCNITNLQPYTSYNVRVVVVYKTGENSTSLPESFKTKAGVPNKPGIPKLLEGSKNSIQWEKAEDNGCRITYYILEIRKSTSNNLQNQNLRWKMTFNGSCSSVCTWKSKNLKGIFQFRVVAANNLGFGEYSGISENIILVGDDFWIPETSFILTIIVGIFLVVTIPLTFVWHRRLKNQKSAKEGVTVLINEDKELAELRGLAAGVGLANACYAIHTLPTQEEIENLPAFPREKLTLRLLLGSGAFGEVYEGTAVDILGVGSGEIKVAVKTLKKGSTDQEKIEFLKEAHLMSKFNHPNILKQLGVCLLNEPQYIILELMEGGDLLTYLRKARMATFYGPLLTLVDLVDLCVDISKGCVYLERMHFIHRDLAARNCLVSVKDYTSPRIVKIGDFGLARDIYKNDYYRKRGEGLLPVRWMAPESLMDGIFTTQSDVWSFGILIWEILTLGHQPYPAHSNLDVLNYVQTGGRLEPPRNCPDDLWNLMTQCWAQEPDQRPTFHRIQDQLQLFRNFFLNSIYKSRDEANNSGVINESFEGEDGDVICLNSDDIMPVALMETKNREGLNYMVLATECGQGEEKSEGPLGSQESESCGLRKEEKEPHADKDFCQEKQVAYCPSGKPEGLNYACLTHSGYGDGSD
Sequence of UniProt P07333 (whole entry, looked up): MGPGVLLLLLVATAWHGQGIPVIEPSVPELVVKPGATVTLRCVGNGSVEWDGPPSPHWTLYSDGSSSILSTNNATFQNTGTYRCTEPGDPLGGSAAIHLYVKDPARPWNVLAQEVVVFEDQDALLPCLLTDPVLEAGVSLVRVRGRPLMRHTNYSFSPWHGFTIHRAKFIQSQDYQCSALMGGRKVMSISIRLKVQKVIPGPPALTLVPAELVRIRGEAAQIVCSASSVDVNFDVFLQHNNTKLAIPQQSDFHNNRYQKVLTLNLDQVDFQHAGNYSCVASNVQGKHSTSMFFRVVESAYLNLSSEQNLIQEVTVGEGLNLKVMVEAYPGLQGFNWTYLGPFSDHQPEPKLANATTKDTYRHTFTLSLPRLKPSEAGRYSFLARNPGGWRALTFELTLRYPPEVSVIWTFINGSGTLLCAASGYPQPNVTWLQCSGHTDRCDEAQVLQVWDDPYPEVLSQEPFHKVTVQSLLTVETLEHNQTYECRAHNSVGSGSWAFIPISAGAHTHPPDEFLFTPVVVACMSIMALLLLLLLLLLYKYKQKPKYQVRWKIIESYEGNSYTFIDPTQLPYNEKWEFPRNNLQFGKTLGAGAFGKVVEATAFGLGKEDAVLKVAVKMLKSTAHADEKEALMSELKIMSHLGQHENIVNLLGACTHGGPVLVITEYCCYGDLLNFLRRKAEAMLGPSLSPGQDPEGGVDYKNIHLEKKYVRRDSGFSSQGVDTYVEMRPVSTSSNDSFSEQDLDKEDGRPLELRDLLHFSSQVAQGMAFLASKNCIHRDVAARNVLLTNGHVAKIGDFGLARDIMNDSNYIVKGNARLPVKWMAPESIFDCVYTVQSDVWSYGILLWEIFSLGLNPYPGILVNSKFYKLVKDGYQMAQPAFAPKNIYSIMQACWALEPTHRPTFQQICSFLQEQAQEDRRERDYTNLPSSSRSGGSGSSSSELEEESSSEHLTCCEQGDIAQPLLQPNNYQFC
Sequence of UniProt P25911 (whole entry, looked up): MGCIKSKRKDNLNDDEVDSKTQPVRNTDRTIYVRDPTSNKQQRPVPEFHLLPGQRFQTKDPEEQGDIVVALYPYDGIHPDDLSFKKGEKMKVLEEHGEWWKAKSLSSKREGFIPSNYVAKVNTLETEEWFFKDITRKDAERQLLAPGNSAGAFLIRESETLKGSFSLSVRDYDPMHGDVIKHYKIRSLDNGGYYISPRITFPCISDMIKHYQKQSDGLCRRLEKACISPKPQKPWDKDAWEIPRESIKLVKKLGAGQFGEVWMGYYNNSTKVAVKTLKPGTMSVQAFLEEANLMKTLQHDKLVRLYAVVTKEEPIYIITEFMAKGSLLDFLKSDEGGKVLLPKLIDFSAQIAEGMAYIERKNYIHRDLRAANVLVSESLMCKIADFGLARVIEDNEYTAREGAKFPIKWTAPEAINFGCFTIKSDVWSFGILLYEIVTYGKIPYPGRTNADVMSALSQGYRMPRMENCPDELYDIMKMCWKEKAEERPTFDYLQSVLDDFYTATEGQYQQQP

Series 1 — read-out: binding; method: competition with immobilised ligand; concentration: 1 µM
SMILES: [2H]c1c([2H])c([C@]2([2H])CCCN2C(=O)C(C)(C)Oc2ccc3cn[nH]c3c2)c([2H])c([2H])c1C([2H])([2H])[2H]
It gave 88% for remaining binding (Proto-oncogene tyrosine-protein kinase ROS (ROS1, Homo sapiens, UniProt P08922)).
Phosphatidylinositol 4,5-bisphosphate 3-kinase catalytic subunit gamma isoform (PIK3CG, Homo sapiens, UniProt P48736) — remaining binding: 70%.
For Receptor tyrosine-protein kinase erbB-3 (ERBB3, Homo sapiens, UniProt P21860): remaining binding read 100%.
Tyrosine-protein kinase Blk (BLK, Homo sapiens, UniProt P51451) — remaining binding: 93%.
The remaining binding was 95% (Macrophage colony-stimulating factor 1 receptor (CSF1R, Homo sapiens, UniProt P07333)).
It gave 71% for remaining binding (cAMP-dependent protein kinase catalytic subunit beta (PRKACB, Homo sapiens, UniProt P22694)).
For Inhibitor of nuclear factor kappa-B kinase subunit alpha (CHUK, Homo sapiens, UniProt O15111): remaining binding read 86%.
It gave 100% for remaining binding (Beta-adrenergic receptor kinase 1 (GRK2, Homo sapiens, UniProt P25098)).

Other studies, line by line
PRKAA1: 5'-AMP-activated protein kinase catalytic subunit alpha-1 (PRKAA1, Homo sapiens, UniProt Q13131)
Sequence of UniProt Q13131 (whole entry, looked up): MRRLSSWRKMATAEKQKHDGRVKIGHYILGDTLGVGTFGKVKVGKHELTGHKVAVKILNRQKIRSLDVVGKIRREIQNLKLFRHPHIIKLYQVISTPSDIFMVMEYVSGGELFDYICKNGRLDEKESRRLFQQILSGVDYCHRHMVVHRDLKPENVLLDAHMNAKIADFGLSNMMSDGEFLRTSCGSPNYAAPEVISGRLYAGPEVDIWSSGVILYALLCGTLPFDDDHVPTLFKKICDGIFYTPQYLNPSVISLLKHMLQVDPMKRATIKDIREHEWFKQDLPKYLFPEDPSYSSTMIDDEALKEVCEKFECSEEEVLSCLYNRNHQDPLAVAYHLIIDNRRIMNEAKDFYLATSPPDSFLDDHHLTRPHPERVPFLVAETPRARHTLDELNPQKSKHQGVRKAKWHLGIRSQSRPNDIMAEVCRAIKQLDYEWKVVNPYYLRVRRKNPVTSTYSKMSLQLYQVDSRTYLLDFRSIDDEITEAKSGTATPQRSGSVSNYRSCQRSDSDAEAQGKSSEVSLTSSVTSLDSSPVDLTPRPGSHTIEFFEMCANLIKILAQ
CSNK1A1: Casein kinase I isoform alpha (CSNK1A1, Homo sapiens, UniProt P48729)
Sequence of UniProt P48729 (whole entry, looked up): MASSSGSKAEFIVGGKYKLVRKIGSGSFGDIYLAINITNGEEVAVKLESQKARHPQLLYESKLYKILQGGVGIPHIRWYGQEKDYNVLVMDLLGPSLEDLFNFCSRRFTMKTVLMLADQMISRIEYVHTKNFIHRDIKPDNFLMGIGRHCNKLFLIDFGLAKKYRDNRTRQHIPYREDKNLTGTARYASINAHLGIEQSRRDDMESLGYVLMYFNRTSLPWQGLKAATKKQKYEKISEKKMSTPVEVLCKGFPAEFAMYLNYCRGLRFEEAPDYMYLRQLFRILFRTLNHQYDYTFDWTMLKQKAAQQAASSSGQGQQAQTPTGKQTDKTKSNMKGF
For `Cc1cc([C@@H](C)Nc2ccccc2C(=O)O)c2nc(N3CCC(F)(F)CC3)c(C#N)c(=O)n2c1`, the remaining binding was 100% (3-phosphoinositide-dependent protein kinase 1 (PDPK1, Homo sapiens, UniProt O15530); binding, competition with immobilised ligand; 1 µM).
With `CNc1ncc2c(/C=C/C(=O)N3CCC(OC)CC3)nn(Cc3cccc(C(F)(F)F)c3)c2n1` the remaining activity was 94% (PRKAA1; enzyme activity, inhibitor, radiometric; 1 µM).
`Oc1ccc(C2CNCCN2)cc1` (stereo not shown) has a Kd of greater than 50 µM (CSNK1A1; binding, SPR).
For `COc1cc(-c2cncc3c2CN(C)Cc2cc(N4CCNCC4)ccc2-3)cc(OC)c1OC`, the remaining activity was 44% (Tyrosine-protein kinase Lyn (Lyn, Mus musculus, UniProt P25911); enzyme activity, inhibitor; 1 µM).
With `O=C(NC1CCCCC1)C(=O)c1c[nH]c2ccccc12` the Kd was 6 µM (CSNK1A1; binding, SPR).
The remaining binding of `CCCCC(=O)Nc1ccc(-c2ccc3ncn(CCC)c(=O)c3c2)cn1` is reported as 100% (PRKAA1; binding, competition with immobilised ligand; 0.5 µM).
`COc1cccc(-c2n[nH]c(SCc3ccccn3)n2)c1OC` has a concentration of 475 ng/mL (female Sprague-Dawley rat, plasma; intravenous, 1 mg/kg, 30 min, single dose).
`C1=C/COCc2cc(ccc2OCCN2CCCC2)Nc2nccc(n2)-c2cccc(c2)COC/1` has a remaining binding of 16% (Receptor-type tyrosine-protein kinase FLT3 (FLT3, Homo sapiens, UniProt P36888, D835H); binding; 0.1 µM).

Some of these lines once more (other studies, line by line):
For `Cc1cc([C@@H](C)Nc2ccccc2C(=O)O)c2nc(N3CCC(F)(F)CC3)c(C#N)c(=O)n2c1`, the remaining binding was 100% (3-phosphoinositide-dependent protein kinase 1 (PDPK1, Homo sapiens, UniProt O15530); binding, competition with immobilised ligand; 1 µM).
With `CNc1ncc2c(/C=C/C(=O)N3CCC(OC)CC3)nn(Cc3cccc(C(F)(F)F)c3)c2n1` the remaining activity was 94% (PRKAA1; enzyme activity, inhibitor, radiometric; 1 µM).
`Oc1ccc(C2CNCCN2)cc1` (stereo not shown) has a Kd of greater than 50 µM (CSNK1A1; binding, SPR).
